Assay results collected from several papers.
Lines come from different studies, so protocols differ. Several values in a cell are separate wells, animals, samples, runs or records. Numbers after ± are the reported error.

Under “log2 fold change”, `Cn1ncc2cc(-c3cncc(Cl)c3N3CCC4(CCNC4=O)CC3)ccc21` is recorded as 1.4 (LS174T; gene expression, microarray, measured: PDK1 mRNA; concentration not given, 4 h; baseline: untreated cells).
`O=C(CCN1CCN(C/C=C/c2ccccc2)CC1)Nc1ccccc1F` has a larval motion of 8.3 ± 2.1 pixels/frame (zebrafish larvae, 7 dpf; 10 µM, minute 6).
For `Cc1ncsc1-c1ccc(C(C)NC(=O)C2CC(O)CN2C(=O)C(NC(=O)CCCCCCCCCCN2CCCC(Nc3ncc(Cl)c(Nc4ccccc4S(=O)(=O)C(C)C)n3)C2)C(C)(C)C)cc1` (stereo not shown), “log2 fold change” read -1.52 (22Rv1; RNA-seq, measured: NAB2 mRNA; concentration not given; baseline: DMSO).
For `COC1CN([C@H]2CC[C@H]([C@@]3(C)Oc4c(Cl)cc(C(=O)NCc5c(SC)cc(C)[nH]c5=O)c(C)c4O3)CC2)C1`, “log2 fold change” read 3.05 (RNA-seq, measured: TFPI2 mouse homolog; mouse, HT-1376 xenograft, whole blood; dose not given; baseline: vehicle).
For `CCN(C(=O)c1cc(F)ccc1Oc1nncnc1N1CCC2(C1)CN([C@H](CCCN(C)CCOC)C(C)C)C2)C(C)C`, the GI50 was greater than 10000 nM (TE-671; muscle; 72 h).
`CN(C)CCOCCOc1ccc(Cl)c(Cl)c1` has a larval motion of 4.3 ± 1.3 pixels/frame (zebrafish larvae, 7 dpf; 10 µM, minute 6).
With `CNS(=O)(=O)Nc1nccc(Cc2c(C)c3ccc(Oc4ncccc4F)cc3oc2=O)c1F` the IC50 was greater than 1000 nM (Daudi; cell viability; 7 days).
For `Cc1ccc(NC(=O)CCN2CCCCCC2)cc1C`, the larval motion was 7.2 ± 1.2 pixels/frame (zebrafish larvae, 7 dpf; 10 µM, minute 6).
`CC(=O)[O-].O.O.O.O.[Mn+2].[O-]c1ccc(Br)cc1C=NCCN1CCOCC1` gave an inhibition of 29.3% (superoxide scavenging; 160 µM).
The remaining binding of `Nc1ncc(-c2cc(-c3cnn(CC(F)(F)F)c3)ncc2F)nc1C(=O)NC1CNCC(F)C1` (stereo not shown) is reported as 40% (BRSK1; KINOMEscan; 1 µM; baseline: DMSO control).
The relative co-enrichment of `C=CC(=O)N1[C@@H](c2ccc3c(c2)OCO3)c2[nH]c3ccccc3c2C[C@H]1C(=O)N1CCN(C)CC1` is reported as 78% (human cyclin E1 wild type-3xFLAG:CDK2; co-IP with TMT proteomics, measured: PRPF8; concentration not given, Q6P2Q9; baseline: wild type DMSO).
`CC(C)(C)NCC(SS(=O)(=O)O)c1ccccc1` (stereo not shown) — result for “liver weight decrease”: 9% (Schistosoma mansoni; perfusion day 52; infected Swiss Webster mice; 400 mg/kg single dose, 1248 h, dosed day 7 post-infection; baseline: vehicle control).
The larval motion of `O=C(CCN1CCN(C/C=C/c2ccccc2)CC1)Nc1ccc2c(c1)CCC2` is reported as 5.7 ± 0.9 pixels/frame (locomotor activity in dark; zebrafish larvae, 7 dpf; 10 µM, minute 7, dark phase).
The IC50 of `CC(C)c1ccc(N(C)c2ccc3c(c2)OCC[C@H]3CNc2cnccc2C(=O)O)cc1` is reported as 18.9 nM (SNU668; cell growth or viability, ATP luminescence; 7 days).
With `CN(C)C(=O)c1ccnc(N2Cc3cn(Cc4ccc(F)cc4F)nc3C2)n1` the paired-pulse ratio was 1.31 and 1.16 and 1.12 and 1.21 and 1.11 and 1.17 and 1.15 and 1.18 (mouse, hippocampal slice, Schaffer collaterals; dose not given, interstimulus interval 400; baseline: second over first response).
The fold regulation of `CCN(CC)CC(=O)Nc1cccc(-n2cc(-c3ccc4ccc(-c5cn(-c6cccc(NC(=O)CN(CC)CC)c6)nn5)cc4c3)nn2)c1` is reported as -1.51 fold (RCC4; PCR angiogenesis array, measured: VEGFA; 5 x IC50, 6 h, normoxia; baseline: untreated).
`C=CC(=O)Nc1cccc(Cn2ncc3cnc(Nc4cnn(CCOC)c4)nc32)c1`: “percent of control” 35% (FGR human; binding, KINOMEscan; 100 nM; lower = stronger binding).
`CN1CCCNC(=O)c2cccc(c2)C(=O)NCCCN(C)CCCNc2cccc3c2C(=O)c2cccc(c2C3=O)NCCC1` — result for “log2 fold change”: -1.87 (SAS; RNA-Seq, measured: LUC7L3 mRNA; 1 µM, 6 h; baseline: untreated cells).
`c1ccc(-c2n[nH]cc2-c2ccnc3ccccc23)nc1` — result for “log2 fold change”: 1.36 (RAD53 (Candida albicans); kinase binding, MIB/MS competition; Candida albicans lysate; 1 µM; baseline: DMSO).

Excerpt of the above:
`CC(=O)[O-].O.O.O.O.[Mn+2].[O-]c1ccc(Br)cc1C=NCCN1CCOCC1` gave an inhibition of 29.3% (superoxide scavenging; 160 µM).
